Published values gathered from unrelated publications.
Compare with care: the assays were run in different laboratories. ± marks the error that the study gave.
CNR1: Cannabinoid receptor 1 (CNR1, Homo sapiens, UniProt P21554)
UniProt P21554, sequence (whole entry, looked up): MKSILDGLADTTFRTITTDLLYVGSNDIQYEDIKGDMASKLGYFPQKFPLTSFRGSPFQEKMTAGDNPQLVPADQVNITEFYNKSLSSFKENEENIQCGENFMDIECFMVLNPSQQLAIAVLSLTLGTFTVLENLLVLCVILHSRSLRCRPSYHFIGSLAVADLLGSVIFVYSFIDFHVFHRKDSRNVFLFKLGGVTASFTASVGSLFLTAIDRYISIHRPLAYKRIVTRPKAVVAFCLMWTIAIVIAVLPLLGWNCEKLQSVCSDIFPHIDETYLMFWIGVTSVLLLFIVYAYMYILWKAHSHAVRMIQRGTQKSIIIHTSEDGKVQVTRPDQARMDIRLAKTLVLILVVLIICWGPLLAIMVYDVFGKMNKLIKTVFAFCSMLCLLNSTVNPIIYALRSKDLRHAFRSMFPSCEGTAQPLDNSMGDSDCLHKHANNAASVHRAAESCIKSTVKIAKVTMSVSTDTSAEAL
DRD4: D(4) dopamine receptor (DRD4, Homo sapiens, UniProt P21917)
UniProt P21917, sequence (whole entry, looked up): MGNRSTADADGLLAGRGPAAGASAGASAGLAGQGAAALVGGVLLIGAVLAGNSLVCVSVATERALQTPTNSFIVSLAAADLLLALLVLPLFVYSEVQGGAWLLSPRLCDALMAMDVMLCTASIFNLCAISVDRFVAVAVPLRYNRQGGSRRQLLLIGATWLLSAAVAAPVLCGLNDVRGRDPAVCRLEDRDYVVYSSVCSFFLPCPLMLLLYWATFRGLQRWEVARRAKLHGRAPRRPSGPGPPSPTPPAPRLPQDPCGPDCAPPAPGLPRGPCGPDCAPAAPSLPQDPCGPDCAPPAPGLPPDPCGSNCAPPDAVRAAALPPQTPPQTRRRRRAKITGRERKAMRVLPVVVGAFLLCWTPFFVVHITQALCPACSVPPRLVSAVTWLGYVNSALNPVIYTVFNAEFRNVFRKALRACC
Kir3.1/Kir3.4: Kir3.1/Kir3.4 (Homo sapiens, UniProt P48544+P48549)
UniProt P48544, sequence (whole entry, looked up): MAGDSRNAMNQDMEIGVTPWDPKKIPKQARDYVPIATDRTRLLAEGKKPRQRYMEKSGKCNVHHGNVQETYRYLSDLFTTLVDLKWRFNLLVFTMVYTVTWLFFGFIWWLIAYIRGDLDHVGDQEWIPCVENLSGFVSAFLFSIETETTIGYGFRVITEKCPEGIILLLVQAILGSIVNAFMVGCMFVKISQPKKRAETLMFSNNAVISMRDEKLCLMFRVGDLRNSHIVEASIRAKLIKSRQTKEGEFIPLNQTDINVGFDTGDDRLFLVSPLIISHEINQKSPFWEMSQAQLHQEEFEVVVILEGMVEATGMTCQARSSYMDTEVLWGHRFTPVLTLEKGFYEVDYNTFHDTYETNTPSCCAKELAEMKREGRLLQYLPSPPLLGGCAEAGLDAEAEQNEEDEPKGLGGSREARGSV
UniProt P48549, sequence (whole entry, looked up): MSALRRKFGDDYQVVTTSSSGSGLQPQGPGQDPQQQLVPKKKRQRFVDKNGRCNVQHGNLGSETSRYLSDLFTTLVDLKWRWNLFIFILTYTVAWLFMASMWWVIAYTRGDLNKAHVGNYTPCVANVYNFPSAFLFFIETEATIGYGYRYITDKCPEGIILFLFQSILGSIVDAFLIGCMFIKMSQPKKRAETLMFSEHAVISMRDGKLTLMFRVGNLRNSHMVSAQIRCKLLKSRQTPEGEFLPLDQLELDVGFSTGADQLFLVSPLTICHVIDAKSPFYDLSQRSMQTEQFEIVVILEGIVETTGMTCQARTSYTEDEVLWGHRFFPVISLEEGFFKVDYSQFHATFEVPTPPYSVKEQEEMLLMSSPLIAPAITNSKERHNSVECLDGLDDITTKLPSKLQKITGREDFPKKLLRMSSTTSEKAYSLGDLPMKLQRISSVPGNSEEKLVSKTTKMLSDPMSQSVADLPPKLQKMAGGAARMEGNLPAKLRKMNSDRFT
UniProt P25103, sequence (whole entry, unmodified, looked up): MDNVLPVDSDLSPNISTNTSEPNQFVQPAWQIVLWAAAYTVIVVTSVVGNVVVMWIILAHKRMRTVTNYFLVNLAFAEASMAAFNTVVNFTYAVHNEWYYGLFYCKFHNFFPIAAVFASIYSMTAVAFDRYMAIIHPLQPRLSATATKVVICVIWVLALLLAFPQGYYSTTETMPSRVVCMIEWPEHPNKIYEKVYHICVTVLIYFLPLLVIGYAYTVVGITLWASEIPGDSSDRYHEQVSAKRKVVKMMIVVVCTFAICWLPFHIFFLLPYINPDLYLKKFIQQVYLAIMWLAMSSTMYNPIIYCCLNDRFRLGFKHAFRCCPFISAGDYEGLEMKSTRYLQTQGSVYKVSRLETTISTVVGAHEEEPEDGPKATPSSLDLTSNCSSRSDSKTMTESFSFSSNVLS
UniProt Q8TDS7, sequence (whole entry, unmodified, looked up): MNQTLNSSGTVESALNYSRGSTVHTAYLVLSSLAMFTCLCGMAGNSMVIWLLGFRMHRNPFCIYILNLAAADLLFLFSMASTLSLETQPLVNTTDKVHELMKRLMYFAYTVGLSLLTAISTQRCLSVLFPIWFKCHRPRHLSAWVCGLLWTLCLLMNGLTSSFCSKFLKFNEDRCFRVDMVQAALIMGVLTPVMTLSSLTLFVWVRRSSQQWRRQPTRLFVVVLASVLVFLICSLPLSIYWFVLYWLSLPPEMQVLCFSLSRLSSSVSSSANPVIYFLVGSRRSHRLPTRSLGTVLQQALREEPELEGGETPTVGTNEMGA
UniProt Q9NSD7, sequence (whole entry, unmodified, looked up): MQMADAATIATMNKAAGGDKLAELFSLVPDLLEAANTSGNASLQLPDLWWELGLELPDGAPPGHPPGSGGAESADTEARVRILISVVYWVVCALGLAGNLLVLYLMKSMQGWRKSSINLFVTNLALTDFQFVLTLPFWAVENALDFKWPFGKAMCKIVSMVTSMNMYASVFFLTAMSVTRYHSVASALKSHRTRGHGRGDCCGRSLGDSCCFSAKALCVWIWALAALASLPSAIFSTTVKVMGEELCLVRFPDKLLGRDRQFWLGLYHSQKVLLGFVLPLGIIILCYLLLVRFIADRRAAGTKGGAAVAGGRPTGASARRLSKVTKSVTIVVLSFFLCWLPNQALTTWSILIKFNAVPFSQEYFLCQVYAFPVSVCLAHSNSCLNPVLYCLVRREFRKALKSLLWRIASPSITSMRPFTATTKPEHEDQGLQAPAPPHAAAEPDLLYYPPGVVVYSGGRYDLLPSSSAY
UniProt Q969F8, sequence (whole entry, unmodified, looked up): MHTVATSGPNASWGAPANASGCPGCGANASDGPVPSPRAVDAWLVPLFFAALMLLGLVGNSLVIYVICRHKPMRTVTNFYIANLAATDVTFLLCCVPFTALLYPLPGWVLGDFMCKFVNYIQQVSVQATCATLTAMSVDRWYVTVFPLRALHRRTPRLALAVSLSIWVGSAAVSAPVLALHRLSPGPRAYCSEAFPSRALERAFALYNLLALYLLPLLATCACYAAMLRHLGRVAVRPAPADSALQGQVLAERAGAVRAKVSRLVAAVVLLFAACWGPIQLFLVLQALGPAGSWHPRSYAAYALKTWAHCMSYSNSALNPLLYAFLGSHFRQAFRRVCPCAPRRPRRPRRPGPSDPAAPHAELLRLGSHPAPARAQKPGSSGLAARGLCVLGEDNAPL

| Compound | target or system | assay | test system | setting | how to read | quantity | value |
| --- | --- | --- | --- | --- | --- | --- | --- |
| CSCC[C@H](NC(=O)[C@H](CC(C)C)NC(=O)CNC(=O)[C@H](Cc1ccccc1)NC(=O)[C@H](Cc1ccccc1)NC(=O)[C@@H](N)CCC(N)=O)C(N)=O | Substance-P receptor (TACR1, Homo sapiens, UniProt P25103, N89D) | agonist |  | concentration not given |  | Emax | 96 ± 18% |
| CCOC(=O)C(CC)(CCCSCCOCCOCCOCCOCCNc1ccc([N+](=O)[O-])c2nonc12)NC(=O)c1ccc(C2CC2)c(Cc2ccc(F)cc2)n1 (centres unmarked) | CNR1 | cAMP, agonist |  |  |  | Emax | 110% |
| N#Cc1ccc(OCC2CN(Cc3cn4nc(Cl)ccc4n3)CCC2(F)F)cc1F (centres unmarked) | DRD4 | ligand displacement, radioligand |  | cell membranes |  | Ki | 16.4 nM |
| CC[C@H](C)[C@@H]1NC(=O)[C@H](Cc2ccccc2)NC(=O)[C@H](CCC(=O)O)NC(=O)[C@H](CCCNC(=N)N)NC(=O)CNC(=O)[C@@H](NC(=O)[C@H](CC(C)C)NC(=O)[C@H](CCCNC(=N)N)NC(=O)[C@@H](NC(=O)CNC(=O)[C@H](Cc2ccc(O)cc2)NC(=O)[C@@H]2CCCN2C(=O)[C@H](C)NC(=O)[C@H](C)NC(=O)[C@@H](N)CCCNC(=N)N)C(C)C)CSSC[C@@H]2NC(=O)[C@@H](NC(=O)[C@H](CO)NC(=O)[C@H](CO)NC(=O)[C@H](CO)NC(=O)[C@H](CC(C)C)NC(=O)CNC(=O)[C@H](C)NC(=O)[C@H](CC(C)C)NC(=O)[C@@H](NC(=O)[C@@H](N)CC(=O)O)C(C)C)CSSC[C@H](NC(=O)CNC(=O)[C@H](Cc3c[nH]c4ccccc34)NC(=O)[C@H](CCCCN)NC2=O)C(=O)N[C@@H](CO)C(=O)N[C@@H](CCCCN)C(=O)N[C@@H](CO)C(=O)N[C@@H](CCC(=O)O)C(=O)N[C@@H]([C@@H](C)CC)C(=O)N[C@@H](CO)C(=O)N[C@@H](CO)C(=O)N[C@@H](CC(C)C)C(=O)N[C@H](C(=O)O)CSSC[C@@H](C(=O)NCC(=O)NCC(=O)N[C@@H](CO)C(=O)N[C@@H](CCCNC(=N)N)C(=O)N[C@@H](Cc2c[nH]c3ccccc23)C(=O)O)NC(=O)[C@H]([C@@H](C)O)NC(=O)[C@H](Cc2ccccc2)NC(=O)[C@H]([C@@H](C)CC)NC(=O)[C@H](C(C)C)NC(=O)[C@H](C)NC(=O)[C@H](CCCNC(=N)N)NC1=O | Relaxin-3 receptor 1 (RXFP3, Homo sapiens, UniProt Q9NSD7, S159A) |  | HEK-293T |  | reference: wild type | Emax | 76.4 ± 4.27% |
| CCc1cc(NC(=O)COc2cc(Cl)ccc2Cl)n(CC(F)(F)F)n1 | Kir3.1/Kir3.4 | thallium flux, activator | HEK293 |  | reference: standard compound | Emax | 54% |
| CNC(=N)NCCC[C@H](NC(=O)[C@H](CC(C)C)NC(=O)NNC(=O)[C@H](Cc1ccccc1)NC(=O)[C@@H](NC(=O)[C@H](CC(N)=O)NC(=O)[C@@H]1C[C@@H](O)CN1C(=O)[C@@H](Cc1ccc(O)cc1)NC(C)=O)[C@@H](C)O)C(=O)N[C@@H](Cc1c[nH]c2ccccc12)C(N)=O | KiSS-1 receptor (KISS1R, Homo sapiens, UniProt Q969F8, N119A) | inositol phosphate, agonist | HEK293 |  |  | Emax | 94.1% |
| COC1CN([C@H]2CC[C@H]([C@@]3(C)Oc4c(Cl)cc(C(=O)NCc5c(SC)cc(C)[nH]c5=O)c(C)c4O3)CC2)C1 |  | RNA-seq, measured: TMEM37 | human, whole blood | dose not given, 24 h | reference: pretreatment baseline | log2 fold change | 13.4 |
| N#Cc1cccc(OCC2CN(Cc3cn4nc(Cl)ccc4n3)CCC2(F)F)c1 (centres unmarked) | DRD4 | ligand displacement, radioligand |  | cell membranes |  | Ki | 35 nM |
| CCOC(=O)[C@](CC)(CCCSCCOCCOCCNC(=O)CCCCCN1C(=CC=CC=CC2=[N+](C)c3ccc4ccccc4c3C2(C)C)C(C)(C)c2c1ccc1ccccc21)NC(=O)c1ccc(C2CC2)c(Cc2ccc(F)cc2)n1.[Cl-] | CNR1 | cAMP, agonist |  |  |  | Emax | 118% |
| O=C(COc1cccc(Cl)c1Cl)Nc1cc(C2CC2)nn1C1CCOCC1 | Kir3.1/Kir3.4 | thallium flux, activator | HEK293 |  | reference: standard compound | Emax | 68% |
| CCOC(=O)C(CC)(CCCSCCOCCNc1ccc([N+](=O)[O-])c2nonc12)NC(=O)c1ccc(C2CC2)c(Cc2ccc(F)cc2)n1 (centres unmarked) | CNR1 | cAMP, agonist |  |  |  | Emax | 152% |
| COc1cc(C2C(NC(=O)c3ccc(NC(=O)OC(C)(C)C)cc3)(C(=O)O)C(c3ccc(OC(=O)c4cccs4)c(OC)c3)C2(NC(=O)c2ccc(NC(=O)OC(C)(C)C)cc2)C(=O)O)ccc1OC(=O)c1cccs1 (centres unmarked) | Glucagon-like peptide 1 receptor (GLP1R, Homo sapiens, UniProt P43220, L388A) | cAMP accumulation, agonist |  | receptor mutant | reference: wild type | Emax | 0.28 ± 8.16% |
| CCc1cc(NC(=O)COc2ccc(C(F)(F)F)cc2C(F)(F)F)n(C2CCC(F)(F)CC2)n1 | Kir3.1/Kir3.4 | thallium flux, activator | HEK293 |  | reference: standard compound | Emax | 48% |
| Cc1ncsc1-c1ccc(C(C)NC(=O)C2CC(O)CN2C(=O)C(NC(=O)CCCCCCCCCCN2CCCC(Nc3ncc(Cl)c(Nc4ccccc4S(=O)(=O)C(C)C)n3)C2)C(C)(C)C)cc1 (centres unmarked) | 22Rv1 | RNA-seq, measured: PPP1R3F mRNA |  | concentration not given | reference: DMSO | log2 fold change | -1.37 |
| CC(C)(C(=O)N1CCC(Nc2nc3c(c(=O)[nH]2)CCCC3)CC1)c1ccc(Cl)cc1 | MRGPRD (Homo sapiens, UniProt Q8TDS7, N157A) | miniGq recruitment, agonist, BRET | HEK293T | N157A mutant | reference: wild type | Emax | 129 ± 2.6% |
| O=C(COc1cccc(Cl)c1Cl)Nc1cc(C2CC2)nn1CC(F)(F)F | Kir3.1/Kir3.4 | thallium flux, activator | HEK293 |  | reference: standard compound | Emax | 54% |
| CNS(=O)(=O)Nc1nccc(Cc2c(C)c3ccc(Oc4ncccc4F)cc3oc2=O)c1F | C8166-CD4 | cell viability, CellTiter-Glo |  | 7 days |  | IC50 | 6.23 nM |
